Published values pooled from the literature.
Each line is one published result; not all experiments were run side by side. “And” joins repeats or separate records; there may be more than shown. ± gives the spread as reported.
CNR1 N393A: Cannabinoid receptor 1 (CNR1, Homo sapiens, UniProt P21554, N393A)
Sequence of UniProt Q8BLF1 (whole entry, looked up): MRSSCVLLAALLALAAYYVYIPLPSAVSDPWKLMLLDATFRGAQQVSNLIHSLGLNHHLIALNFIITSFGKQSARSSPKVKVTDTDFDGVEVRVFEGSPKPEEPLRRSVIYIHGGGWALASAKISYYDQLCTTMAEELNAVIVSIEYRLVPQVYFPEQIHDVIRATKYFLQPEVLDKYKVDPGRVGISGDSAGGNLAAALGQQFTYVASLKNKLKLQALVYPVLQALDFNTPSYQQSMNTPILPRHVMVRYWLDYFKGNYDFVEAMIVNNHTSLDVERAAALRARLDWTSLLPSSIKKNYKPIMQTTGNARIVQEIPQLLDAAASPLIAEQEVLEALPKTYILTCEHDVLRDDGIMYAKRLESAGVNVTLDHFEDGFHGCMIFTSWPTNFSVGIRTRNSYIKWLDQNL
Sequence of UniProt Q9UM07 (whole entry, looked up): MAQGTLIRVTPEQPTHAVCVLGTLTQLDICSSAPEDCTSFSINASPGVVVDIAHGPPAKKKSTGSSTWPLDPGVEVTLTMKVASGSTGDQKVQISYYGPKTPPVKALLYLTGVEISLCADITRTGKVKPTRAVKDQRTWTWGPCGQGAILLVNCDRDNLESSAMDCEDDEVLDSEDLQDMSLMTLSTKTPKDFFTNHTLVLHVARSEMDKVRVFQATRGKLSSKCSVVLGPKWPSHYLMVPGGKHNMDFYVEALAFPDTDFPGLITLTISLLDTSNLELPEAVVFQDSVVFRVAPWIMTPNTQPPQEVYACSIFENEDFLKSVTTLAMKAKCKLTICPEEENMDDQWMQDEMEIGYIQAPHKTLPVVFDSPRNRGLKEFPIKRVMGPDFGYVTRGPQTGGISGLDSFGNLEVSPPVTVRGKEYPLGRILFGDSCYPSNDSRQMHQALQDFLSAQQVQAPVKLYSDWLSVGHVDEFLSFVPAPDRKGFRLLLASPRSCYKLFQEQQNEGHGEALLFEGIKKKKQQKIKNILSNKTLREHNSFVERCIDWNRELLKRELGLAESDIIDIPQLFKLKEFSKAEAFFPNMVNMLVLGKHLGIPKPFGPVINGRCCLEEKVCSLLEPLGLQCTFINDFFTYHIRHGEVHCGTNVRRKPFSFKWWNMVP
Sequence of UniProt P21554 (whole entry, unmodified, looked up): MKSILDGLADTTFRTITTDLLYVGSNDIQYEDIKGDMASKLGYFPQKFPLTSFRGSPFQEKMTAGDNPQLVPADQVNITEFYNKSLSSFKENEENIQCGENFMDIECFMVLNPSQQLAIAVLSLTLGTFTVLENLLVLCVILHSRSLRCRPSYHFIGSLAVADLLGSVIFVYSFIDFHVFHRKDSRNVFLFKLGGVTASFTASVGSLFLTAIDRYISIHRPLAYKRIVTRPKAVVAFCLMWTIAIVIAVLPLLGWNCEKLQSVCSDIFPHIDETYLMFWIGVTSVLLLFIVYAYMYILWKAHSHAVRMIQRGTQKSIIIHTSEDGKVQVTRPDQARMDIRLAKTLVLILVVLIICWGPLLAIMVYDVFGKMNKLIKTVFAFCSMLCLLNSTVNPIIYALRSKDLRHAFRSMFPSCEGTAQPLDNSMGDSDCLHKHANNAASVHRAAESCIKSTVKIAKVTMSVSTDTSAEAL
Sequence of UniProt Q15910 (whole entry, looked up): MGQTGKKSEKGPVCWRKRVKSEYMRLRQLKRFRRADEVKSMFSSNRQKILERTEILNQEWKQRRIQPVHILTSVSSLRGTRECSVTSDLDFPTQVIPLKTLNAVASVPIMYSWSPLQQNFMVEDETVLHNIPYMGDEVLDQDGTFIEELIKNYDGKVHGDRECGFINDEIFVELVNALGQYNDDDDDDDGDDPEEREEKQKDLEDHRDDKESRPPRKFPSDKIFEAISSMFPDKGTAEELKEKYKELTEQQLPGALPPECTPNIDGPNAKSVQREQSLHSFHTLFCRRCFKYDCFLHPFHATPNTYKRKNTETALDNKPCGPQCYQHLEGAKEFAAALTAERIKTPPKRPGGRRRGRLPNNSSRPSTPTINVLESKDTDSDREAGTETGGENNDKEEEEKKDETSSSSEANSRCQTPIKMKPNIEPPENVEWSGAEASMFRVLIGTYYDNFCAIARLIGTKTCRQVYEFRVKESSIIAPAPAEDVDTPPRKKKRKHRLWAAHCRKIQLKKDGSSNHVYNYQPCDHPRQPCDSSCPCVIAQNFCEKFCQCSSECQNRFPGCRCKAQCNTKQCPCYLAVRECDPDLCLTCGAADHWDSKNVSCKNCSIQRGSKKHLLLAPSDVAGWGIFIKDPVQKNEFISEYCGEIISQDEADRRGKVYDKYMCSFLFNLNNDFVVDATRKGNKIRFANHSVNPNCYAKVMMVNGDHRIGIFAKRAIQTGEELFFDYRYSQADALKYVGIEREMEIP
Sequence of UniProt P07948 (whole entry, looked up): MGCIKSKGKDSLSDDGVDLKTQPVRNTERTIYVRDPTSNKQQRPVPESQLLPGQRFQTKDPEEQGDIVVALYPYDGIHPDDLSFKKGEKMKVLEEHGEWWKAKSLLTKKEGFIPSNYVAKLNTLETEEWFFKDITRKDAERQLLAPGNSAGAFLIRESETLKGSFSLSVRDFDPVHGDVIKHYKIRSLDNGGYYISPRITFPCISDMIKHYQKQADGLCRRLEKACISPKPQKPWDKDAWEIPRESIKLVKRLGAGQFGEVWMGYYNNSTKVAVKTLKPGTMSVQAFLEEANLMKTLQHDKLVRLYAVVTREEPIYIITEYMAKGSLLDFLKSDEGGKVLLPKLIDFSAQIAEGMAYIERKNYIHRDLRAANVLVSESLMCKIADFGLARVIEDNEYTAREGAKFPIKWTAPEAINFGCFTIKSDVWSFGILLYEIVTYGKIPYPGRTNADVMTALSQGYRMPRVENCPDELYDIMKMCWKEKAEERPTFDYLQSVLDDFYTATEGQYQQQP
Sequence of UniProt P08172 (whole entry, looked up): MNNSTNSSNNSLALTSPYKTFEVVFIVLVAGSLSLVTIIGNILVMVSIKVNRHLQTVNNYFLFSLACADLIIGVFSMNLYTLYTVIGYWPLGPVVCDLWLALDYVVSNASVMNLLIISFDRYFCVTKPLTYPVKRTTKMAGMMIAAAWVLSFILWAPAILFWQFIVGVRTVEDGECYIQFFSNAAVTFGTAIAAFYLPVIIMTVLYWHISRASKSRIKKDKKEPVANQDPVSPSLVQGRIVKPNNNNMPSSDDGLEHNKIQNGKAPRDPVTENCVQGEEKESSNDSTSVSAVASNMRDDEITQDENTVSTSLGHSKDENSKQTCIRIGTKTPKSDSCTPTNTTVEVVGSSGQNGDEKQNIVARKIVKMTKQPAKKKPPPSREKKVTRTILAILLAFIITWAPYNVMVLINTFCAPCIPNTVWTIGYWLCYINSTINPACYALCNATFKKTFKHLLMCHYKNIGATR
Sequence of UniProt Q9UL54 (whole entry, looked up): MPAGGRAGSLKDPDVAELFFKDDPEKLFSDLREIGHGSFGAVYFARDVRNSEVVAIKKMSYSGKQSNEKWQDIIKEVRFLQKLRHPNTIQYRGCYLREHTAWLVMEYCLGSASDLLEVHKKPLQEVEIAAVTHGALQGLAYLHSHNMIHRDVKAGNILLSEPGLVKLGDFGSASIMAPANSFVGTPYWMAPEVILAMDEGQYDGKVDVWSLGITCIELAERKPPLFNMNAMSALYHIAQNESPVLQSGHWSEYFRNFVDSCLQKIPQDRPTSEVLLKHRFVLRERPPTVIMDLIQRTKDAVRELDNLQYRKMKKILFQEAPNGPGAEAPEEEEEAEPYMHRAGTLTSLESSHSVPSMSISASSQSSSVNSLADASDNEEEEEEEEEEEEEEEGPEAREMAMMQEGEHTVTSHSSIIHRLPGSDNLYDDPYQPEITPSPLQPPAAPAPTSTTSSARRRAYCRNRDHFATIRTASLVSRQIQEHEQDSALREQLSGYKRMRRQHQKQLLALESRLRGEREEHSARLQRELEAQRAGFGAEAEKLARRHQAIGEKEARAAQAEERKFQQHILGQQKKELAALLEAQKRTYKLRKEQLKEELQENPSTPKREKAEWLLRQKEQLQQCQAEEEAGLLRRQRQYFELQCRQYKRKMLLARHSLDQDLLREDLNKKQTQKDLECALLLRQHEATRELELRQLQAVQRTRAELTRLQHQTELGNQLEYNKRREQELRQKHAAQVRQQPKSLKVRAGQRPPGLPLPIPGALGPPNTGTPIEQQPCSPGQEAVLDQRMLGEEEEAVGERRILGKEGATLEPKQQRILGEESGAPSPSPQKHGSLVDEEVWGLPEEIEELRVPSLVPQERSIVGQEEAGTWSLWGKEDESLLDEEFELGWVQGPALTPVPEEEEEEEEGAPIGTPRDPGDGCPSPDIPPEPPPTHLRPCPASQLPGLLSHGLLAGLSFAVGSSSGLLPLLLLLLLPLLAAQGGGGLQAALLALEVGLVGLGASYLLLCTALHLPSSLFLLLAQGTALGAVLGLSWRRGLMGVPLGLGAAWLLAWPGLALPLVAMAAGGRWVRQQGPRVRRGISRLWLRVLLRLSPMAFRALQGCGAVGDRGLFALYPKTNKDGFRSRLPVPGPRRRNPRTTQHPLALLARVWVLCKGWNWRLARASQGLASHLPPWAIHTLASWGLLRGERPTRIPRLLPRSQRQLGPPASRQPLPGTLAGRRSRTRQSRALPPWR

CC[C@H](C)[C@H](NC(=O)[C@H](CO)NC(=O)[C@H](Cc1ccc(O)cc1)NC(=O)[C@H](Cc1ccc(O)cc1)NC(=O)[C@H](CC(N)=O)NC(=O)CNC(=O)[C@H](CO)NC(=O)[C@H](Cc1ccc(O)cc1)NC(=O)[C@H](CO)NC(=O)[C@H](CO)NC(=O)[C@H](CC(N)=O)NC(=O)COCCOCCNC(=O)CN1CCN(CC(=O)O)CCN(CC(=O)O)CCN(CC(=O)O)CC1)C(=O)N[C@@H](CC(C)C)C(N)=O [copper-64 labelled]  tissue uptake (dynamic PET; KPC mouse Ptf1a-CreER tdTomato, metastases; intravenous, 4.6 MBq/mouse, 5.5 min, 84 d after tamoxifen): 15.3 %ID/mL
COc1ccccc1-c1n[nH]c2nc(NC3CCN(C(=O)Cc4ccc(F)cc4F)CC3)ncc12  relative abundance (bead binding, competition bead pull-down, refers to: LINJ.36.6760; Leishmania donovani axenic amastigote extract; 10 µM; reference: vehicle): 0.75
CSc1cc(C)[nH]c(=O)c1CNC(=O)c1c(C)n([C@H](C)C2CCN(CC(F)(F)F)CC2)c2ccccc12  residence time (EZH2 (Homo sapiens, UniProt Q15910); binding, TR-FRET; added: H3K27me3 activating peptide): 3120 min
COc1ccccc1C(C[N+](=O)[O-])c1c(-c2ccccc2)[nH]c2ccccc12 (stereo not shown)  delta log(tau/KA) (CNR1 N393A; G protein activation): -0.25 ± 0.03
O=C1NC2(CC2)COc2ncc(F)cc2[C@H]2COCCN2c2ccn3ncc1c3n2  serum LDH activity (Sprague-Dawley rat, female, serum; oral, 5 mg/kg/day, end of treatment, 4-week subacute toxicity): 782 ± 271 U/L
CS(C)(=O)=Nc1ccc(-c2ccc(-c3nc4cc(O[C@@H]5CO[C@H]6[C@@H]5OC[C@H]6O)[nH]c4cc3F)cc2)cc1  inhibition (ATM (Homo sapiens, UniProt Q13315); enzyme activity, inhibitor; 10 µM): 7%
CC(C)(C)C(=O)OCOP(=O)(OCOC(=O)C(C)(C)C)C1CCCN(O)C1=O (stereo not shown)  TGI (SF-295): > 100 µM
CC(C)[C@H]1NC(=O)C[C@H]2/C=C/CCSSC[C@@H](NC1=O)C(=O)N[C@H](Cc1cccc3ccccc13)C(=O)NCC(=O)O2  inhibition (TAOK2 (Homo sapiens, UniProt Q9UL54); enzyme activity, inhibitor; 10 µM): 1.9%
Cc1ccc2c(C(C[N+](=O)[O-])c3cccs3)c(-c3ccccc3)[nH]c2c1 (stereo not shown)  delta log(tau/KA) (CNR1 N393A; G protein activation): -0.03 ± 0.01
CN(C)[C@H]1C[C@@]23CC[C@@]4(O2)C(=CC[C@]2(C)[C@@H](c5ccc6ccncc6c5)CC[C@H]24)C=C3[C@@H](O)[C@@H]1O  inhibition (WEE1 (Homo sapiens, UniProt P30291); ATP probe labelling, inhibitor, KiNativ profiling; 0.1 µM): -8.5%
COc1ccccc1-c1n[nH]c2nc(N[C@H]3CC[C@H](NS(=O)(=O)CC(C)C)CC3)ncc12  relative abundance (bead binding, competition bead pull-down, refers to: LINJ.33.2570; Leishmania donovani extract; 10 µM; reference: vehicle): 0.92
Cc1sc2c(c1C)C(c1ccc(Cl)cc1)=NC(CC(=O)OC(C)(C)C)c1nnc(C)n1-2 (stereo not shown)  remaining binding (CHRM2 (Homo sapiens, UniProt P08172); ligand displacement, radioligand; 1 µM): 97.8%
Nc1ccc(/C=C/C(=O)N2CCc3c(oc4c(-c5ccc(F)cc5)cc(-c5ccc(C(=O)N6CCC(F)(F)CC6)cn5)cc34)C2)cn1  remaining binding (KIT (Homo sapiens, UniProt P10721, D816V); binding, competition with immobilised ligand; 1 µM): 100%
O=C1NC(=O)c2c1c1cc(F)c[n+]3c1c1c2c2cc(O)ccc2[n]1[Ru-4]312([N]=C=S)[S+]3CC[S+]1CC[S+]2CC3 (stereo not shown)  remaining activity (LYN (Homo sapiens, UniProt P07948); enzyme activity; 100 nM, human enzyme, added: 10 µM ATP; reference: untreated): 7%
N[C@H](C(=O)N1CCCC1)C1CCN(c2nccc3c(-c4ncc(Cl)cc4Cl)cccc23)CC1  kcat (PADI4 (Homo sapiens, UniProt Q9UM07); enzyme activity; 0.006291 µM, low-affinity site, added: Ca2+ 0.25 mM): 0.96 s⁻¹ and 0.98 s⁻¹
CC(C)CC(O)(CC(C)C)c1cn(C(=O)N2CCCC2)nn1  SILAC activity ratio (Neutral cholesterol ester hydrolase 1 (Mus musculus, UniProt Q8BLF1); probe labelling, inhibitor, competitive ABPP-SILAC, refers to: Aadacl1; mouse T cells; concentration not given, 4 h, single peptide; reference: treated over DMSO cells, lower = stronger inhibition): 1.21 and 1 and 1.19 and 1.28 and 1.4

Some of these lines once more:
CC(C)(C)C(=O)OCOP(=O)(OCOC(=O)C(C)(C)C)C1CCCN(O)C1=O (stereo not shown)  TGI (SF-295): > 100 µM
